Assay results collected from several papers.
Several values in a cell are separate wells, animals, samples, runs or records. ± gives the spread as reported.

Structure (SMILES) | assay | test system | setting | how to read | measurement | value
C[C@]1(O)C[C@@](N)(c2ccc(-c3nc4n(c3-c3ccccc3)COc3ccncc3-4)cc2)C1 |  | human, advanced or metastatic solid tumours | 24 mg intermittent, phase I dose escalation |  | patients with AST increased | 0%
CC(C)=CC1C(C(=O)OC(C#N)c2cccc(Oc3ccccc3)c2)C1(C)C (stereo not shown) | measured: CYP3A5 | human, age 1 year |  |  | enzyme contribution to clearance | 0.25%
CC(C)[C@@H]1NC(=O)CNC(=O)[C@H](CC(N)=O)NC(=O)[C@H](CCCNC(=N)N)NC(=O)[C@H](Cc2ccc(O)cc2)NC(=O)[C@H](C(C)C)NC(=O)[C@@H](NC(=O)[C@@H](NC(=O)[C@H](CC(N)=O)NC(=O)[C@H](Cc2c[nH]c3ccccc23)NC(=O)[C@H](C)NC(=O)[C@H](Cc2ccccc2)NC(=O)CN)C(C)C)CSSC[C@@H](C(=O)N[C@@H](Cc2cnc[nH]2)C(=O)N[C@@H](CCCNC(=N)N)C(=O)N[C@@H](CCCNC(=N)N)C(=O)N[C@@H](C)C(=O)N[C@@H](CC(N)=O)C(N)=O)NC(=O)[C@H](C(C)C)NC(=O)[C@H](CCCNC(=N)N)NC1=O |  | ICR mouse | ip, 5 mg/kg | direction not given | breathing score | 0
COC[C@@]12CC[C@H](OC)[C@]34C(C([C@H](OC)[C@H]13)[C@]1(OC(C)=O)[C@H]3[C@@H](OC(=O)c5ccccc5)[C@](O)(C[C@H]34)[C@@H](OC)[C@@H]1O)N(C)C2 |  | Sprague-Dawley rat, plasma | oral, dose not given, in PCW extract |  | half-life | 2.96 ± 1.53 h
CC(=O)c1c(C)c2cnc(Nc3ccc(C4CCN(CCS(C)(=O)=O)CC4)cn3)nc2n(C2CCCC2)c1=O |  | human, plasma | oral, 50 mg twice daily, day 1, single dose, together with: letrozole |  | MRT | 4.52 h
O=S(=O)(Nc1ccccc1)c1ccc(NC(=S)Nc2ccccc2)cc1 |  | male mouse, blood | oral, 5 mg/kg daily, 14 days |  | haemoglobin | 14.1 g/dL
CN1CC[C@@H](c2c(O)cc(O)c3c(=O)cc(-c4ccc(C(F)(F)F)cc4Cl)oc23)[C@@H]1CO | measured: Hypertension | B-cell malignancies or AML | oral, 100 mg, continuous dosing |  | patients with adverse event | 12.5%
C[C@]1(CO)Cc2ncn(-c3ccc(C#N)c(Cl)c3)c2C(=O)O1 |  | human, plasma | 5 mg single dose, median |  | tmax | 0.5 h
O=C(Nc1ccccc1)C1CCN(C(=O)Oc2cccnc2)CC1 | adverse event reporting | healthy women | oral, 20 mg, 7 days |  | subjects with decreased appetite | 0%
COc1cc2c(Oc3ccc4[nH]c(C)cc4c3F)ccnc2cc1OCC1(N)CC1 |  | paediatric recurrent refractory sarcoma | 8 mg/kg |  | grade 1 or 2 Cholesterol elevation | 26.7%
CCc1ccc(CC/C=C/c2ccc3c(c2)C(=O)CC3)cc1 |  | Sprague-Dawley rat, male | oral, 450 mg/kg/day, 14 days |  | ALT serum activity | 79.7 U/L
Clc1nc[n]([Au][PH](c2ccccc2)(c2ccccc2)c2ccccc2)c1Cl |  | NCG mice | intraperitoneal, 10 mg/kg single dose, 24 h |  | body weight | 22.1 g and 22.2 g
Cc1cc(C)c(CNC(=O)c2cc(Cl)c3c(c2C)O[C@@](C)([C@H]2CC[C@H](N(C)C)CC2)O3)c(=O)[nH]1 |  | relapsed/refractory NHL patients | dose not given, trial, safety set, all TEAEs grade 5 |  | incidence of dry skin | 0%
C[C@H]1CN(C(=O)CC#N)[C@]12CCN(c1ncnc3[nH]ccc13)C2 |  | dog female | oral, 0.6 mg/kg repeated daily, 9 months, repeated-dose toxicity study |  | Cmax at NOAEL | 310 ng/mL
COc1ccc(N=Nc2ccc3[nH]cc(CCN(C)C)c3c2)cc1 | light irradiation | solution | together with: light 530 nm |  | trans isomer at photostationary state | 91%
CC[C@H](C)[C@H](NC(=O)[C@H](Cc1ccccc1)NC(=O)[C@H](CCC(=O)O)NC(=O)[C@H](CCCNC(=N)N)NC(=O)[C@H](C)NC(=O)[C@H](C)NC(=O)[C@H](CCC(N)=O)NC(=O)[C@H](CCC(=O)O)NC(=O)[C@H](CCC(=O)O)NC(=O)[C@H](CC(C)C)NC(=O)[C@H](Cc1ccc(O)cc1)NC(=O)[C@H](CO)NC(=O)[C@H](CO)NC(=O)[C@@H](NC(=O)[C@H](CC(=O)O)NC(=O)[C@H](CO)NC(=O)[C@@H](NC(=O)[C@H](Cc1ccccc1)NC(=O)[C@@H](NC(=O)CNC(=O)[C@H](CCC(=O)O)NC(=O)[C@H](C)NC(=O)CCc1cnc[nH]1)[C@@H](C)O)[C@@H](C)O)C(C)C)C(=O)N[C@@H](C)C(=O)N[C@@H](Cc1c[nH]c2ccccc12)C(=O)N[C@@H](CC(C)C)C(=O)N[C@H](C(=O)N[C@@H](CCCNC(=N)N)C(=O)NCC(=O)N[C@@H](CCCNC(=N)N)C(=O)N[C@@H](CCCCNC(=O)COCCOCCNC(=O)COCCOCCNC(=O)CC[C@H](NC(=O)CCCCCCCCCCCCCCCCC(=O)O)C(=O)O)C(=O)NCC(=O)NCC(=O)N[C@@H](CO)C(=O)N[C@@H](CCCCNC(=O)[C@H](CCCCNc1c(NCCCCCN(O)C(=O)CCC(=O)NCCCCCN(O)C(=O)CCC(=O)NCCCCCN(O)C(C)=O)c(=O)c1=O)Nc1c(NCCCCCN(O)C(=O)CCC(=O)NCCCCCN(O)C(=O)CCC(=O)NCCCCCN(O)C(C)=O)c(=O)c1=O)C(=O)O)C(C)C [zirconium-89 labelled] | ex vivo gamma counting | Sprague-Dawley rat, male, heart | intravenous, 1 nmol, 24 h |  | tissue uptake | 0.222 %ID/g and 0.19 %ID/g and 0.204 %ID/g and 0.177 %ID/g and 0.216 %ID/g
COc1ncnn2ccc(-c3cnc4nc(C)n(Cc5nnc([C@@H](C)F)o5)c4c3)c12 |  | human patients | oral, dose not given |  | incidence of amylase increased (all grades) | 14.3%
CC(C)(O)c1cc(Nc2cc(Oc3cn(C4CC4)nc3C3CCOCC3)ccn2)ccn1 | Diarrhea | patients with advanced cancer, Japanese cohort | oral, dose not given, grade ≥3 |  | treatment-related adverse events | 0%
Cn1cncc1-c1c(F)cncc1NC(=O)c1c(N)nn2cc(F)cnc12 |  | human patients | oral, up to 40 mg once daily |  | patients grade ≥3 Hyponatremia | 13%

Structure (SMILES) | assay | test system | setting | how to read | measurement | value
C=CCNc1c(O)cc2c(O)c1C[C@@H](C)C[C@H](OC)[C@H](O)[C@@H](C)/C=C(\C)[C@H](OC(N)=O)[C@@H](OC)/C=C\C=C(/C)C(=O)N2 |  | unresectable or metastatic STS, GIST, other | intravenous, 150 mg/m^2 |  | patients with vomiting TEAE | 0%
N#C/N=C1\SCCN1Cc1ccc(Cl)nc1 |  | soil | 28 days, nominal 0.12 |  | recovery | 0%
O=c1ccc2cc3ccoc3cc2o1 |  | rat, plasma | oral, 217 mg/kg Pc extract |  | AUC(0-inf) | 15400 ± 6730 ng·h/mL
COc1cccc(Oc2ccccc2NC(=O)CNC(=O)c2cccc3ccccc23)c1 |  | esterase-deficient SCID mice, male | oral, 40 mg/kg/day, 14 days, toxicity study |  | serum calcium | 10.3 mg/dL and 9.8 mg/dL and 8.7 mg/dL
NCCCC[C@@H]1NC(=O)[C@@H](Cc2c[nH]c3ccccc23)NC(=O)[C@H](c2ccccc2)NC(=O)[C@@H]2C[C@@H](OC(=O)NCCN)CN2C(=O)[C@H](Cc2ccccc2)NC(=O)[C@H](Cc2ccc(OCc3ccccc3)cc2)NC1=O |  | healthy volunteers | subcutaneous, 600 µg twice daily, day 5, 24.00 h |  | QTcI change from baseline | 3.9 ms
Clc1ccc(-c2ccccc2)cc1 |  | rat Sprague-Dawley female, serum | inhalation, 23 µg/rat, 0 h |  | serum CO2 | 19 ± 5 mmol/L
O=C(O)CCC(CP(=O)(O)O)C(=O)O (stereo not shown) |  | rat plasma | 4 µg/mL, freeze-thaw cycle 1 at -80 °C |  | measured concentration | 4.26 ± 0.11 µg/mL
C[C@@H](NC(=O)N1C(=O)[C@H](Cc2ccnc(N)c2)[C@H]1C(=O)O)C1CCCCC1 |  | healthy adult Chinese volunteers | continuous intravenous infusion, 0.6 mg/kg/h, 5-day infusion, CTCAE 5.0 grading |  | incidence of injection site erythema swelling | 0%
CCCC(CCC)NC(=O)c1ccc2c(c1)OCO2 |  | Swiss albino CD-1 mice, male, bone marrow | intraperitoneal, 175 mg/kg, 24 h |  | micronucleated PCEs | 0.1%
COc1cc(C2C3=C(COC3=O)N(CCO)c3cc4c(cc32)CCC4)cc(OC)c1OC (stereo not shown) |  | female C57BL/6 mice | intraperitoneal, 200 mg/kg, 48 h, single dose, mean |  | body weight | 22 g
CC(C)C[C@H](NC(=O)[C@H](CCCCN)NC(=O)OCC1c2ccccc2-c2ccccc21)C(=O)N[C@H](C(=O)N[C@@H](Cc1ccccc1)C(=O)N[C@@H](Cc1ccccc1)C(=O)N[C@@H](CCCCN)C(=O)NCC(=O)N[C@@H](Cc1ccccc1)C(=O)N[C@@H](C)C(=O)N[C@@H](Cc1c[nH]c2ccccc12)C(=O)N[C@@H](CC(N)=O)C(=O)N[C@H](C(=O)N[C@H]1CSSC[C@@H](C(=O)N[C@@H](Cc2c[nH]cn2)C(=O)N[C@@H](CCCNC(=N)N)C(=O)N[C@@H](CCCNC(=N)N)C(=O)N[C@@H](C)C(=O)N[C@@H](CC(N)=O)C(N)=O)NC(=O)[C@H](C(C)C)NC(=O)[C@H](CCCNC(=N)N)NC(=O)[C@H](C(C)C)NC(=O)CNC(=O)[C@H](CC(N)=O)NC(=O)[C@H](CCCNC(=N)N)NC(=O)[C@H](Cc2ccc(O)cc2)NC(=O)[C@H](C(C)C)NC1=O)C(C)C)C(C)C |  | ICR mouse, blood | intramammary, 10 mg/kg, day 5, 3 d dosing |  | haemoglobin | 13 ± 0.659 g/dL
CC[C@H](C)[C@@H]1NC(=O)[C@@H]2CSSC[C@H](NC(=O)[C@H](CCCNC(=N)N)NC(=O)[C@@H]3CSSC[C@H](NC1=O)C(=O)N[C@@H]([C@@H](C)O)C(=O)N[C@@H](CCCNC(=N)N)C(=O)NCC(=O)N[C@@H](Cc1ccccc1)C(=O)N3)C(=O)N[C@@H](CC(C)C)C(=O)N[C@H]1CSSC[C@H](NC(=O)[C@H](C(C)C)NC(=O)CNC(=O)[C@H](CCCNC(=N)N)NC(=O)[C@H](CCCNC(=N)N)NC1=O)C(=O)N[C@@H](CCCNC(=N)N)C(=O)N2 |  | Sprague-Dawley rats, male, lung | 5 mg/kg | direction not given | alveolar macrophage aggregation score | 1 to 2
COc1ncccc1-c1cnn2ccc(N3CCN(C(=O)OC(C)C)CC3)nc12 |  | mouse nerve ligation model, brain | oral, 3 mg/kg, 30 min after last dose, repeat dosing day 5 |  | drug concentration | 2900 nM
NC(=O)[C@H]1CCN(c2ncnc(N)c2F)C[C@@H]1N1CCC[C@@H](Nc2cc(Cl)cc(C(F)(F)F)c2)C1=O |  | B-cell malignancy patients | oral, 164 mg twice daily, dose |  | grade ≥3 platelet decrease | 25%
CCN1[C@@H](C(=O)NC23CCC(C(=O)O)(CC2)CC3)[C@H](c2cccc(Cl)c2F)[C@]2(C(=O)Nc3cc(Cl)ccc32)C12CCCCC2 |  | patients with advanced solid tumours | oral, 200 mg |  | grade ≥3 Lymphocytopenia incidence | 50%
CCCCCCCCCCCCCCCC(=O)N[C@@H](CCC(=O)NCCCC[C@H](NC(=O)[C@H](CC(=O)O)NC(=O)[C@H](CO)NC(=O)[C@@H](NC(=O)[C@H](Cc1ccccc1)NC(=O)[C@@H](NC(=O)CNC(=O)[C@H](CCC(N)=O)NC(=O)[C@H](CO)NC(=O)[C@@H](N)Cc1c[nH]cn1)[C@@H](C)O)[C@@H](C)O)C(=O)N[C@@H](CO)C(=O)N[C@@H](CCC(=O)O)C(=O)N[C@@H](Cc1ccc(O)cc1)C(=O)N[C@@H](CC(C)C)C(=O)N[C@@H](CC(=O)O)C(=O)N[C@@H](CO)C(=O)N[C@@H](CCC(=O)O)C(=O)N[C@@H](CCCNC(=N)N)C(=O)N[C@@H](C)C(=O)N[C@@H](CCCNC(=N)N)C(=O)N[C@@H](CC(=O)O)C(=O)N[C@@H](Cc1ccccc1)C(=O)N[C@H](C(=O)N[C@@H](C)C(=O)N[C@@H](Cc1c[nH]c2ccccc12)C(=O)N[C@@H](CC(C)C)C(=O)N[C@@H](CCC(=O)O)C(=O)N[C@@H](C)C(=O)NCC(=O)NCC(=O)O)C(C)C)C(=O)O |  | human, CrCl ≥45 to <60 mL/min | sc, 100 µg single dose |  | atrial fibrillation | 0%
O=C(c1ccc(F)c(F)c1Nc1ccc(I)cc1F)N1CC(O)([C@@H]2CCCCN2)C1 |  | human | oral, 1 mg/kg |  | onset day of headache DLT | 23 days
CO[C@H]1C[C@@H]2CC[C@@H](C)[C@@](O)(O2)C(=O)C(=O)N2CCCC[C@H]2C(=O)O[C@H]([C@H](C)C[C@@H]2CC[C@@H](OC(=O)NCCOCCOCCOCCOCCOCCOCCOCCOCCC(=O)N3CCc4cc(Cn5nc(-c6ccc7oc(N)nc7c6)c6c(N)ncnc65)ccc4C3)[C@H](OC)C2)C[C@@H](O)[C@H](C)/C=C(\C)[C@@H](O)[C@@H](OC)C(=O)[C@H](C)C[C@H](C)/C=C/C=C/C=C/1C | phase 1 dose escalation, measured: neutropenia | advanced solid tumour patients | intravenous, 10 mg weekly, any grade |  | dose-reducing adverse events | 0%
